# Assay results collected from several papers.
# Each numbered part is a random draw from the data of one study; scales do not carry over between parts. Changes are numbered by the printed parent chain.

# Series 1
# Target: Transcription factor SOX-2, HMG box (Sox2, Mus musculus, UniProt P48432, residues 41-119)
# UniProt P48432, sequence (41-119, looked up): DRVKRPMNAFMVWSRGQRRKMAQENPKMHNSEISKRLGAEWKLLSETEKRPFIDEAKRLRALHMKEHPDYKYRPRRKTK
# Method: Spec-seq
# Form: double-stranded DNA, one strand shown
# Matrix: in vitro
# Tested at: not given
# Notes: whole probe, mean of replicates
# Relative to: not given
# Direction: lower = stronger binding
# Shared flanks, not repeated: GAGTCGTCTCGTCAGCAC … CCGTAGAGCACTCAGGTC
Sequence,relative binding energy [ln ratio]
CTTAGTT,-0.288
CATAACG,-0.147
CATCAGT,0.5
CATAGAA,-1.32
TCCAGTT,0.553
CATTGCC,-0.05
GAAAGTT,0.828
ATTTGTT,-1.67
CTAGGTT,0.939
CATCGCA,0.661
ACAGGTT,0.0193
CATATTG,-0.0711
CATTCAA,-1.88
CATGAAT,-0.341
GTCCGTT,1.16
CATGTAG,0.0126
CATCTTG,0.719
CATTGAC,-1.25
CATCTAA,0.417
CAAAGTT,0.37
CATTGTA,-2.25
TGGAGTT,1.01
CAAGGTT,0.934
CTGCGTT,1.22
TGCGGTT,1.04

# Series 2
# Target: NFE2L2, bZIP domain (human)
# Method: DHFR protein complementation
# Matrix: yeast
# Notes: single substitutions, most at no-binding floor
# Relative to: wild-type JUN-FOS pair
# Direction: higher = stronger binding
# Starting sequence: JUN, bZIP domain (human); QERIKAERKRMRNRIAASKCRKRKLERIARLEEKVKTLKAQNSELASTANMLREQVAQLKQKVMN; partner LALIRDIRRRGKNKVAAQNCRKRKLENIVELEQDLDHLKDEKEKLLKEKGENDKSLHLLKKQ
Change,binding fitness [natural log]
L38W,-1.51
L45D,-1.58
M51G,-1.41
A46L,-1.46
A57T,-1.48
L38D,-1.57
E32T,-1.39
T48W,-1.33
L52G,-1.52
L38G,-1.47
A49V,-1.34
M51F,-1.46
S47V,-1.32
R30M,-1.36
K36N,-1.65
V56P,-1.52

# Series 3
# Target: CCNE2, cyclin fold, Cln2 fusion (human)
# Method: yeast growth competition, sequencing
# Matrix: yeast
# Notes: strong parent motif
# Relative to: not given
# Direction: higher = stronger binding
# Starting sequence: SCAPER docking peptide (human); SNARRSLNFGGST
Change,normalised enrichment score
N8I,1.52
A3F,1.61
A3L,-0.419
G10S,0.55
L7S,0.987
F9I,0.409
L7T,0.766
S6T,2.37
F9T,0.243
S6P,-0.101
G10W,1.44
A3D,-0.127
G10R,0.64
N8R,0.792
S1Y,1.05
R4D,0.29
A3M,1.28

# Series 4
# Target: CEP164, C-terminal peptide (human)
# Method: DHFR complementation, deep sequencing
# Matrix: yeast
# Notes: single substitutions, model-inferred values
# Relative to: wild type
# Direction: higher = weaker binding
# Starting sequence: PDZK1, PDZ domain 2 (human); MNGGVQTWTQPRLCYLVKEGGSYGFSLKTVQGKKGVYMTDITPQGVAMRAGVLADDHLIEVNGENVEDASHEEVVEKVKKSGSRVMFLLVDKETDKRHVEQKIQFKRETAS; partner HNRVKVYRF
Change,binding free energy change [kcal/mol]
D40T,1.24
K79S,0.526
E108T,-0.158
D55N,0.312
S70W,-0.325
G45W,0.708
C14M,0.594
G3E,-0.201
G20V,0.581
T9Y,0.0585
V46F,0.936
K96C,-0.0221
V78L,1.62
V30Q,0.0223

# Series 5
# Target: ABI1, truncated, D143A, DHFR fusion (Arabidopsis thaliana)
# Method: DHFR PCA, deep sequencing
# Matrix: yeast
# Notes: methotrexate growth selection, single substitutions
# Added: (+)-ABA 710 µM
# Relative to: wild-type fitted maximum
# Direction: higher = stronger binding
# Starting sequence: PYL1, truncated, DHFR fusion (Arabidopsis thaliana); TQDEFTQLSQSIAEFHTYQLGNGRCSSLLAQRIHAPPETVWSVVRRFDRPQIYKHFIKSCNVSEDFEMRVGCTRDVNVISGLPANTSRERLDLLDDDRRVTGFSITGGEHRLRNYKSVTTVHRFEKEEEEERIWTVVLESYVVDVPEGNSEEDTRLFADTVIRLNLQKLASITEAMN
Change,relative binding score [%]
I79W,103
E38F,83.7
K58V,91.3
L8G,78.1
C25W,53
C25E,51.1
S11L,97.3
R99T,92.2
Y115W,80.1
L93H,110
C72P,54.8
F103A,-8.1
D97C,110
V121S,13
F157Q,8.54
E130Y,105
E89C,-15.2
M68R,86.8
S9T,105
E89F,8.02
V137Y,21
K54S,8.28

# Series 6
# Target: Sal-like protein 4, full length isoform A (SALL4, Homo sapiens, UniProt Q9UJQ4, residues 1-1053)
# UniProt Q9UJQ4, sequence (whole entry, looked up): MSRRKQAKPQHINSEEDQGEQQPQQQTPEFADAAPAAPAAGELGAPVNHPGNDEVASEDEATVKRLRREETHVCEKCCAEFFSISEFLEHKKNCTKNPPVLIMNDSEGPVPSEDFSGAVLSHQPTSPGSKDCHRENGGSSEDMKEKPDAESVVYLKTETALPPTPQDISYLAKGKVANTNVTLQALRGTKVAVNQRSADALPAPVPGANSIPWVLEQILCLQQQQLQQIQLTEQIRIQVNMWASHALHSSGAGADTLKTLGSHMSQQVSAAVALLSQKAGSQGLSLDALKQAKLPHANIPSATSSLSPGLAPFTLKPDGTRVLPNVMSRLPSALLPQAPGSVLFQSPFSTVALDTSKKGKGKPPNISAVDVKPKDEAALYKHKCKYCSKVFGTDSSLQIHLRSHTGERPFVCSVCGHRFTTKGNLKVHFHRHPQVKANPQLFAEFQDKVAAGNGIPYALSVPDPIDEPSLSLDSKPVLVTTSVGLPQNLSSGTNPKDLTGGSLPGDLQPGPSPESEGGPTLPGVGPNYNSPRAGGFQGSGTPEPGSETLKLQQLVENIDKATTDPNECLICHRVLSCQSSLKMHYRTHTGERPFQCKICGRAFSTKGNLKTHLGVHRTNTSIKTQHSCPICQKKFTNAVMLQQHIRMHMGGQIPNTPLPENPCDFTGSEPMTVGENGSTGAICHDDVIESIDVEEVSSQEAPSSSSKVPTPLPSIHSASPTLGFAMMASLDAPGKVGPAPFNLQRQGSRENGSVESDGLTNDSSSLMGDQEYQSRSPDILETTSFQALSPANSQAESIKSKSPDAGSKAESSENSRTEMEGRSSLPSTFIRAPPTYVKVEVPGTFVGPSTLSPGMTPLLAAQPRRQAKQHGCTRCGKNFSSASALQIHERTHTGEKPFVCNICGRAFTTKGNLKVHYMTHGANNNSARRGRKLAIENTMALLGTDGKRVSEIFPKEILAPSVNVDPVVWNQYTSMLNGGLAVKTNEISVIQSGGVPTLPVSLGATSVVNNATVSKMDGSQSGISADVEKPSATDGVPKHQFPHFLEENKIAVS
# Method: universal PBM
# Form: double-stranded DNA, one strand shown
# Matrix: in vitro
# Tested at: 600 nM
# Notes: 8-mer, flanks averaged, mean of replicates
# Direction: higher = stronger binding
Sequence,E-score
TTCATAAA,0.419
AACCAACT,0.0263
TCCTAAAA,0.165
ACTTTACT,0.166
CCCATGGG,-0.313
ACCGCTAC,-0.229
ATCTTTAC,0.17
ACTTTCGC,0.0325
CGAAGTGA,-0.0908
ACCTCGCC,-0.344
AGTCTCCA,-0.0654
GATTGGCC,-0.139
CGCGAGAC,-0.114
AACTTGGG,-0.0103
AAATGCGT,0.177
CAATATCC,0.142
GGTCTCTA,-0.036
AGAGTGGA,-0.112
CTGAGTGA,0.0412
AATCCACC,-0.124
CAACTCAC,-0.058
GAATCGCA,-0.123
CTAATGGC,-0.033
AATACTTG,0.212

# Series 7
# Target: Histone acetyltransferase KAT6A, both winged helices, GST fusion (KAT6A, Homo sapiens, UniProt Q92794, residues 1-181)
# Method: protein binding microarray
# Form: double-stranded DNA, one strand shown
# Matrix: in vitro
# Tested at: not given
# Notes: 8-mer, flanks averaged, mean of 2 arrays, mostly near background
# Relative to: not given
# Direction: higher = stronger binding
# Construct (chain): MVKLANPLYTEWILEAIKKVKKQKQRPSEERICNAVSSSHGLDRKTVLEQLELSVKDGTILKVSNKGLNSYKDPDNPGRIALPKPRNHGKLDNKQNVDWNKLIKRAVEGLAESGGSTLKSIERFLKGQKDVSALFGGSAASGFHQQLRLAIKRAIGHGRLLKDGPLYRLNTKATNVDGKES
Sequence,E-score
ACACCACC,-0.0393
CGAGGGTC,0.00504
TGCTCGAA,-0.0518
AGCTTTTC,-0.12
CCTGAACG,-0.0331
CGGTGCTC,0.0522
AGGAAAAG,-0.115
GTAGTATA,0.105
CGAGCGCC,0.234
ACGAGGTG,-0.123
ATCGCGCA,0.3
CGTGATAA,0.0927
GCTGCTTA,-0.0349
AGAGTGAG,-0.32
AGAGAGCG,0.0782
TATCCGGA,0.151
CACTTACG,0.0651
CAGTAAGG,-0.0807

# Further values, each from its own experiment
Molecule,target,assay,system,conditions,how to read,quantity,value
"PhoQ, residues 284 288 289 292 302 303 ALVSVA","PhoP, residues 12 14 15 18 19 NQGLL (Escherichia coli, UniProt P23836)","Sort-seq, measured: YFP reporter",E. coli,"PhoQ-PhoP variant library, added: 10 µM Mg2+","relative to: high Mg2+ state, higher = stronger signaling",fold induction,5.07

# Repeated from above (series 2):
Change,binding fitness [natural log]
T48W,-1.33
S47V,-1.32
A49V,-1.34
A57T,-1.48
V56P,-1.52
L38W,-1.51
M51F,-1.46
L52G,-1.52
K36N,-1.65
